# Measured values collected from several papers.
# Each numbered part is a random draw from the data of one study; scales do not carry over between parts. Substitutions count along the parent as printed.

# Block 1
# Target: Ras GTPase-activating protein-binding protein 1, full length (G3BP1, Homo sapiens, UniProt Q13283)
# UniProt Q13283, sequence (whole entry, looked up): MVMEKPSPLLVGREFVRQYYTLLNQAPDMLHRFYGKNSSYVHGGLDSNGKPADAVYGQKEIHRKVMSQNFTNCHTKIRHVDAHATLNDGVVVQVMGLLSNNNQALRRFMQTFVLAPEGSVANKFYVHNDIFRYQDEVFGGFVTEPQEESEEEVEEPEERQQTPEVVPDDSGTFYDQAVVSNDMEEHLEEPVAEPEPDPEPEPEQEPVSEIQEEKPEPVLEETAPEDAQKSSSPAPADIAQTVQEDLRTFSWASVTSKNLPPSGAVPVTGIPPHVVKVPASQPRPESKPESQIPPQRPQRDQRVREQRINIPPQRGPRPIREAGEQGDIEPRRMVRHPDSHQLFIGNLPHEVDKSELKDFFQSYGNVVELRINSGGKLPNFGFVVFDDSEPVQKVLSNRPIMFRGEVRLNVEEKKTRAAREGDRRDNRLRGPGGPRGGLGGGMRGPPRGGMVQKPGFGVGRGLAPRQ
# Method: RNA Bind-n-Seq
# Form: RNA
# Medium: in vitro
# Tested at: 200 nM
# Notes: whole 134-nt RNA, ends assumed
# With: 150 mM LiCl
# Reference: input library
# Reading: higher = stronger binding
# Each molecule: 7-deaza-guanosine replaces G
# Shared flanks, not repeated: GGGAGUUCUACAGUCCGACGAUC … UGGAAUUCUCGGGUGUCAAGG
Oligonucleotide,log2 enrichment
GUCCUGUGCUACACAUCGUAUGUACCGAAUCAAAUUUUUAAACCCCCAAAUUUUUAAAAAAGUAUUAUGUUACGCCGUUCGGAUCUGCAC,-0.0283
CACAGACAACACGCACCCACACAGACACAGAGGGAAGGGGUUGGGAUGGGGACAGGGUGCACAGCAGCGCGGGGUAGGACCCCAGCCCCU,0.498
GUCCUGUGCUACACAUCGUAUGUACCGAAUCGGGUUUUUUUGGGAAAAAAAGGGAGGGAAAGUAUUAUGUUACGCCGUUCGGAUCUGCAC,-1.44
ACCAUGCAGGUGGGCAUCUUUGGGAAGUGGGGCUAGGGGGGGAUAGGGAGGGGGGUAACACUUUGGGAACAGGUGGUCCCAGGUCGUUUC,0.112
UCCUGUGCUACACAUCGUAUGUACCGAAUCGGGGUGGGGAAAAAAAGGGGAAAAAGGGGAAAGUAUUAUGUUACGCCGUUCGGAUCUGCA,-0.321
UAACUUUAGAGGAGGAUCUGAUGGAUAUGGCAGUGGACGUGGAUUUGGGGAUGGCUAUAAUGGGUAUGGAGGAGGAUCUGGAGGUGGCAA,0.222
GCAGGAAGUAAAAACAAAUGGAAAUGCUUCGGAUAGUGGCAGGGGUGGGGGUUGCUAAGGAAAGGGUGGGAUGCGAGUGGGUAAAGAGUU,0.113
CCUGUGCUACACAUCGUAUGUACCGAAUCGGGAAAAAGGGUUUUUUUGGGAAAAAAAGGGAAAGUAUUAUGUUACGCCGUUCGGAUCUGC,-0.884
GCAGGAAGUAAAAACAAAUGGAAAUGCUUCGGAUAGUGGCAGGGGUGGGGGUUGCUAAGGAAAGGGUGGGAUAGGAGUGGGUAAAGAGUU,-0.0587
CCUGUGCUACACAUCGUAUGUACCGAAUCGGCCCCCCCGGGCCCCCCCGGGGCCCCCCCGGAAAGUAUUAUGUUACGCCGUUCGGAUCUG,0.0765
UCAAGUCCUGUGCUACACAUCGUAUGUACCGAAUCGGGUGGGAAAAAGGGUGGGAAAGUAUUAUGUUACGCCGUUCGGAUCUGCACUUCC,-0.528

# Block 2
# Target: XBP1, bZIP domain (human)
# Method: DHFR protein complementation
# Medium: yeast
# Notes: single substitutions, most at no-binding floor
# Reference: wild-type JUN-FOS pair
# Reading: higher = stronger binding
# Starting sequence: JUN, bZIP domain (human); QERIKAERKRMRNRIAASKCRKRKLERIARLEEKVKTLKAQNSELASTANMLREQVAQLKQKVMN; partner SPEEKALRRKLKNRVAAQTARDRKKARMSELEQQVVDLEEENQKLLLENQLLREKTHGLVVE
Change,binding fitness
E44S,-1.11 natural log
K39T,-0.953 natural log
T48W,-1.34 natural log
L31T,-1.44 natural log
V56K,-1.53 natural log
L52H,-1.34 natural log
A49R,-0.163 natural log
L31Q,-1.44 natural log
R53K,-0.79 natural log
Q55S,-1.17 natural log
R53L,-1.24 natural log
T48K,-0.886 natural log
T37E,-0.412 natural log
E32K,-1.27 natural log
K39Q,-0.864 natural log
I28Q,-1.07 natural log
E44R,-0.949 natural log
T37N,-0.596 natural log
S43C,-0.903 natural log
V35A,-1.36 natural log
E54L,-1.3 natural log
T37L,-0.587 natural log
A57D,-0.611 natural log
S47C,-0.807 natural log
L31E,-1.51 natural log

# Block 3
# Target: Sal-like protein 4, full length isoform A (SALL4, Homo sapiens, UniProt Q9UJQ4, residues 1-1053)
# UniProt Q9UJQ4, sequence (whole entry, looked up): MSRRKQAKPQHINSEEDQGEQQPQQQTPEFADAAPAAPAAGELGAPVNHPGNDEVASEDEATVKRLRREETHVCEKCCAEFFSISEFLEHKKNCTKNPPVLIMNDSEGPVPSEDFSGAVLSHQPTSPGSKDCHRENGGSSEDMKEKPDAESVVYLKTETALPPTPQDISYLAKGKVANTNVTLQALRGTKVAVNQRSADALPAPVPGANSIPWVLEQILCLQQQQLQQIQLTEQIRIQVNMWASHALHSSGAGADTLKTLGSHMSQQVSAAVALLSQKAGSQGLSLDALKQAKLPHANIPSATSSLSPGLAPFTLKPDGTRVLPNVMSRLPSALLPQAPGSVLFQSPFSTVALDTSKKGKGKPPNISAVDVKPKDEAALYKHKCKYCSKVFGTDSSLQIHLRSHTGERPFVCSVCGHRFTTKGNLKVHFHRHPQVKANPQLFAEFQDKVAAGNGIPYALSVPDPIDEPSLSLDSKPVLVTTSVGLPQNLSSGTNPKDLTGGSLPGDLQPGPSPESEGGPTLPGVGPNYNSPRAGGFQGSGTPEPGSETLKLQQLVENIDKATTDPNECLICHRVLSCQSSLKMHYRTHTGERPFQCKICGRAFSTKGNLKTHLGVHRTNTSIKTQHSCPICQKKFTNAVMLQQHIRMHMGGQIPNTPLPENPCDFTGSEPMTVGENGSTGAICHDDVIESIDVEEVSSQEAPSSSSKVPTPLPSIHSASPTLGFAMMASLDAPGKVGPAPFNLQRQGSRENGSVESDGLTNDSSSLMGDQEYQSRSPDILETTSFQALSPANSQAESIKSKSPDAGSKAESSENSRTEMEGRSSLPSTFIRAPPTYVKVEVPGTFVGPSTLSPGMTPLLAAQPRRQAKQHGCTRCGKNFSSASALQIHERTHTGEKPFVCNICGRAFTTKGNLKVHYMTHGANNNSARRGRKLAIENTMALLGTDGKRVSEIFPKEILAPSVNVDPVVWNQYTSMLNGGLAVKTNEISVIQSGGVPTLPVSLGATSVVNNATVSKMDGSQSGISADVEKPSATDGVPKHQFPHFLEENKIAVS
# Method: universal PBM
# Form: double-stranded DNA, one strand shown
# Medium: in vitro
# Tested at: 600 nM
# Notes: 8-mer, flanks averaged, mean of replicates
# Reading: higher = stronger binding
Oligonucleotide,E-score
AAGGAGAA,0.0797
GAAAGACA,0.0884
ATGCGTAA,0.289
AAGTGGTA,0.0133
CCAGCTCC,-0.392
CGCCGCCC,-0.467
AAGAGAAT,0.107
AGTTGAGA,-0.0299
AATCCCAC,-0.132
AATGCATC,0.135
CAATGAAG,-0.00713
GTGGGCTA,-0.0658
ACCGATAT,0.0782
CCATAAGG,0.0654
AGTTCATA,0.315
CACAATGC,-0.0802
AGGCAAAT,0.0868

# Block 4
# Target: RNA binding protein fox-1 homolog 2, RRM domain, GST-SBP tag (RBFOX2, Homo sapiens, UniProt O43251-10, residues 100-194)
# Method: RNA Bind-n-Seq
# Form: RNA
# Medium: in vitro
# Tested at: 365 nM
# Notes: natural RNA segment, single round, ends assumed
# Reference: no-protein control
# Reading: higher = stronger binding
# Shared flanks, not repeated: GGGAGUUCUACAGUCCGACGAUC … UGGAAUUCUCGGGUGCCAA
# Construct (chain): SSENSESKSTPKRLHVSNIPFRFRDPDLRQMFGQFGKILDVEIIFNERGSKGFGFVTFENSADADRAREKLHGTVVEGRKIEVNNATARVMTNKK
Oligonucleotide,RBNS enrichment (R)
AGAUCCCCCUGCCUCAGCCUCCAGAGUGCUGGGAUAAAAGGUGUGGGCCACCAAGCUAGGCUAAGAAAGAGGUUUUAAUUGUGGUUUCUUUCCUGCAGUGCUGUCCCCAA,0.479
CUUUUCUCCUUCUGUCCCUUUUCUCAAAAGCAUCUUUCCCCCAAAUGUAUGUCUCUAGGACAUUUUAUAGUUUUAAGAGGAAGAAAACAGAAACGUGGCAUCAUUUGGGA,0.343
UCUACUGACCUGAAUGUGUUGGAUCUACACGUGUUGUUUUGUUUUUGCUUUAUUGAUGCACGGAUGCUUUUGAACAGUAGAGCGAAAUGCUAGACAUGGAGAAUCUGCUC,13.7
UGCUCUUUGACUUGGUUUCUUCUUGCUCCCAUAUCAUCAAAUAUUGGAGCCUAUAAUUUUUUUACCUUACAUUUUAGGUAGAAACCAAAUAAAAGAUUUUGCUAAGAAGA,0.426
CCUUGGCUGUCCUAGAACUCUAUGUAGAUCAUGCUGGUCUAGCGCUCACAGAGAUCAGAACUCUGUGUAGAUCACACUGGUCUAGAACUCAGAGUCUGCCUGCAUCUGUC,1.28
UAACACAGAACGAGGUUAUCUAGGGUUGUAGCUUUUGAUACAACUCCCCGAUCUAGAUUUAUUCCUACAUUCUGAAUGGGGAGCAGGUAAGAGCAGAGCACCUCCCACUG,2.02
UCCUAACGUUGCGUUAACAUAUUUGUAUAUAUGCUGGUCUCAACUUUGGAUCUAGACCUGGGGCCAGAUGUAUCUAGUGGAUAGACUUGCAGGGCCAUGCAGGCCGGACU,0.527
AGAAACUUAGUGUAAUGCCCUGCUUUAUAUUUCUUUGACUUAACAUUGGUUUCAGAAAGAAUCUUAGCUACCUAGAAUUUACAGUCUCUGUUUCAUGGCAACACUGGAUA,0.311
UUAUGGGUACAUUCAAGACAAGAGUGUUCCAUUGACUGCAGCUAUCCAAGGACCGCCUGUUCAUAAGCUAUGCUCCAGAGGCUGCCGAUUCACUCGUGUGCACGGAGGGG,6.39
AGAAAUAGGGUUACGUCCAUUAGGAAAAUCCCAGUUUGCAGGAGUGCAAUCACAUCAAAAAAACAACCAGCCAGGAUUAAAGGUAUUAUAAAUCCUCAUAGCGGAACAUU,0.426
ACAAGACUUCUUGGCUUUUCCAAAGACAGAGAUUUCUGGGGGGAAGCCGAAUAUUUCUACCUAAACUCUGGGUGUGACCUCAGCUCGCUUUCCUCUGAUCCACUGUCCAA,0.315
AGCGGUUUAUUAAGCUCUUCUAUAUUAAACACUAAUAGAUAUUCAAUAACGGAGUAAACUGUUCCAGAUAAAGCAAGAAUAGUUGCAAGAAGUAAAUUCUGGCACAAAGC,0.449

# Block 5
# Target: ABI1, truncated, D143A, DHFR fusion (Arabidopsis thaliana)
# Method: DHFR PCA, deep sequencing
# Medium: yeast
# Notes: methotrexate growth selection, single substitutions
# With: (+)-ABA 0 µM
# Reference: wild-type fitted maximum
# Reading: higher = stronger binding
# Starting sequence: PYL1, truncated, DHFR fusion (Arabidopsis thaliana); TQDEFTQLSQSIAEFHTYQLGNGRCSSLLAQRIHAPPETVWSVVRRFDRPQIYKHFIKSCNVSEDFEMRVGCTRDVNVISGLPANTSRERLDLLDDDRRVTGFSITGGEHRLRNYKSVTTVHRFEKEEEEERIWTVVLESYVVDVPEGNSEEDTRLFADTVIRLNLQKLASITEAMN
Change,relative binding score
I12H,1.51%
S104I,-4.05%
P37I,0.793%
E109N,34.6%
P50E,1.33%
Q51V,-6.6%
L8M,0.489%
E139C,5.02%
H55I,15%
N114F,-9.36%
E64N,24.8%
E151I,25.7%
E64K,46%
R111K,11.6%
I52C,10.1%
M68E,-3.3%
K168P,-0.713%
L91K,-6.11%
V161C,57.8%
Y18Q,2.51%

# For quick reference, copied from above (block 2):
Change,binding fitness
L52H,-1.34 natural log
A49R,-0.163 natural log
L31Q,-1.44 natural log
R53K,-0.79 natural log
Q55S,-1.17 natural log
R53L,-1.24 natural log
T48K,-0.886 natural log
